Assay results from different studies.
Values joined by “and” are separate records of one study, mostly repeats; a detail may differ. Numbers after ± are the reported error.
U2AF2: U2AF2 148-342 (Homo sapiens, UniProt P26368)
Sequence of UniProt P26368 (whole entry, looked up): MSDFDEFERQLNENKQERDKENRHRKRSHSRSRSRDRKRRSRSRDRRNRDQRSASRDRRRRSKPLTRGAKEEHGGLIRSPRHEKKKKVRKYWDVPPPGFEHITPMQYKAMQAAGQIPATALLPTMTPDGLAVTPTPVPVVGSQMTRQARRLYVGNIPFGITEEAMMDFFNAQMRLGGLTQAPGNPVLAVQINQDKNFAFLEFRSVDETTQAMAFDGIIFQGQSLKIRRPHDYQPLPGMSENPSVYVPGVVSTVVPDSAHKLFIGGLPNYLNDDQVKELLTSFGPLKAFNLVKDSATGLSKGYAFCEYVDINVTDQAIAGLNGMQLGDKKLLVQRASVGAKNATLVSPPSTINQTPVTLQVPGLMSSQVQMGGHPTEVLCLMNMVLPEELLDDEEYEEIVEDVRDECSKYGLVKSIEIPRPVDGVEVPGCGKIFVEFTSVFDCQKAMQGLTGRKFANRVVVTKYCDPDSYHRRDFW
B1: human eRF3b; sequence looked up; chain MDSGSSSSDSAPDCWDQVDMESPGSAPSGDGVSSAVAEAQREPLSSAFSRKLNVNAKPFVPNVHAAEFVPSFLRGPTQPPTLPAGSGSNDETCTGAGYPQGKRMGRGAPVEPSREEPLVSLEGSNSAVTMELSEPVVENGEVEMALEESWEHSKEVSEAEPGGGSSGDSGPPEESGQEMMEEKEEIRKSKSVIVPSGAPKKEHVNVVFIGHVDAGKSTIGGQIMFLTGMVDKRTLEKYEREAKEKNRETWYLSWALDTNQEERDKGKTVEVGRAYFETERKHFTILDAPGHKSFVPNMIGGASQADLAVLVISARKGEFETGFEKGGQTREHAMLAKTAGVKHLIVLINKMDDPTVNWSIERYEECKEKLVPFLKKVGFSPKKDIHFMPCSGLTGANIKEQSDFCPWYTGLPFIPYLDNLPNFNRSIDGPIRLPIVDKYKDMGTVVLGKLESGSIFKGQQLVMMPNKHNVEVLGILSDDTETDFVAPGENLKIRLKGIEEEEILPGFILCDPSNLCHSGRTFDVQIVIIEHKSIICPGYNAVLHIHTCIEEVEITALISLVDKKSGEKSKTRPRFVKQDQVCIARLRTAGTICLETFKDFPQMGRFTLRDEGKTIAIGKVLKLVPEKD
B2: PP6 regulatory subunit 1 (human); sequence looked up; chain MFWKFDLHTSSHLDTLLEREDLSLPELLDEEDVLQECKVVNRKLLDFLLQPPHLQAMVAWVTQEPPDSGEERLRYKYPSVACEILTSDVPQINDALGADESLLNRLYGFLQSTGSLNPLLASFFSKVMGILINRKTDQLVSFLRKKDDFVDLLLQHIGTSAIMDLLLRLLTCVERPQLRQDVVNWLNEEKIVQRLIEQIHPSKDENQHSNASQSLCDIIRLSREQMIQVQDSPEPDQLLATLEKQETIEQLLSNMFEGEQSQSVIVSGIQVLLTLLEPRRPRSESVTVNSFFSSVDGQLELLAQGALESTVSSVGALHALRPRLSCFHQLLLEPPKLEPLQMTWGMLAPPLGNTRLHVVKLLASALSANDAALTHELLALDVPNTMLDLFFHYVFNNFLHAQVEGCVSTMLSLGPPPDSSPETPIQNPVVKHLLQQCRLVERILTSWEENDRVQCAGGPRKGYMGHLTRVAGALVQNTEKGPNAEQLRQLLKELPSEQQEQWEAFVSGPLAETNKKNMVDLVNTHHLHSSSDDEDDRLKEFNFPEEAVLQQAFMDFQMQRMTSAFIDHFGFNDEEFGEQEESVNAPFDKTANITFSLNADDENPNANLLEICYKDRIQQFDDDEEEEDEEEAQGSGESDGEDGAWQGSQLARGARLGQPPGVRSGGSTDSEDEEEEDEEEEEDEEGIGCAARGGATPLSYPSPGPQPPGPSWTATFDPVPTDAPTSPRVSGEEELHTGPPAPQGPLSVPQGLPTQSLASPPARDALQLRSQDPTPPSAPQEATEGSKVTEPSAPCQALVSIGDLQATFHGIRSAPSSSDSATRDPSTSVPASGAHQPPQTTEGEKSPEPLGLPQSQSAQALTPPPIPNGSAPEGPASPGSQ
B3: histone H1.3 human; sequence looked up; chain SETAPLAPTIPAPAEKTPVKKKAKKAGATAGKRKASGPPVSELITKAVAASKERSGVSLAALKKALAAAGYDVEKNNSRIKLGLKSLVSKGTLVQTKGTGASGSFKLNKKAASGEGKPKAKKAGAAKPRKPAGAAKKPKKVAGAATPKKSIKKTPKKVKKPATAAGTKKVAKSAKKVKTPQPKKAAKSPAKAKAPKPKAAKPKSGKPKVTKAKKAAPKKK
B4: sequence looked up; chain AARVLIIGSGGREHTLAWKLAQSHHVKQVLVAPGNAGTACSEKISNTAISISDHTALAQFCKEKKIEFVVVGPEAPLAAGIVGNLRSAGVQCFGPTAEAAQLESSKRFAKEFMDRHGIPTAQWKAFTKPEEACSFILSADFPALVVKASGLAAGKGVIVAKSKEEACKAVQEIMQEKAFGAAGETIVIEELLDGEEVSCLCFTDGKTVAPMPPAQDHKRLLEGDGGPNTGGMGAYCPAPQVSNDLLLKIKDTVLQRTVDGMQQEGTPYTGILYAGIMLTKNGPKVLEFNCRFGDPECQVILPLLKSDLYEVIQSTLDGLLCTSLPVWLENHTALTVVMASKGYPGDYTKGVEITGFPEAQALGLEVFHAGTALKNGKVVTHGGRVLAVTAIRENLISALEEAKKGLAAIKFEGAIYRKDVGFRAIAFLQQPRSLTYKESGVDIAAGNMLVKKIQPLAKATSRSGCKVDLGGFAGLFDLKAAGFKDPLLASGTDGVGTKLKIAQLCNKHDTIGQDLVAMCVNDILAQGAEPLFFLDYFSCGKLDLSVTEAVVAGIAKACGKAGCALLGGETAEMPDMYPPGEYDLAGFAVGAMERDQKLPHLERITEGDVVVGIASSGLHSNGFSLVRKIVAKSSLQYSSPAPDGCGDQTLGDLLLTPTRIYSHSLLPVLRSGHVKAFAHITGGGLLENIPRVLPEKLGVDLDAQTWRIPRVFSWLQQEGHLSEEEMARTFNCGVGAVLVVSKEQTEQILRDIQQHKEEAWVIGSVVARAEGSPRVKVKNLIESMQINGSVLKNGSLTNHFSFEKKKARVAVLISGTGSNLQALIDSTREPNSSAQIDIVISNKAAVAGLDKAERAGIPTRVINHKLYKNRVEFDSAIDLVLEEFSIDIVCLAGFMRILSGPFVQKWNGKMLNIHPSLLPSFKGSNAHEQALETGVTVTGCTVHFVAEDVDAGQIILQEAVPVKRGDTVATLSERVKLAEHKIFPAALQLVASGTVQLGENGKICWVKEE

For `UCAGGCCAU (ssRNA)`, the Kd was 6.51 µM (U2AF2; sequencing of bound RNA; RNA; motif only).
The tissue uptake of `FNA / CGLSGLGVA-NH2 ([18F]FNA-labelled, C-amide)` is reported as 0.59 %ID/g (gamma counting; peptide, glioblastoma mice, femur (bone and marrow); 60 min).
`GSGAGKETRV` gave a binding intensity of 0.114 (construct, MBP fusion, human SCRIB, PDZ 3-4; automated holdup; peptide, purified PDZ protein; concentration not given, unit not given; reference: biotin control resin, higher = stronger binding).
Under “log2 fold change”, `B1 (human eRF3b)` is recorded as 0.0855 (PP6C (human); co-immunoprecipitation, IP-MS; CYB5R4 knockout cells; concentration not given; reference: CYB5R4 knockout over parental).
For `Triton X-100`, “average chemical shift perturbation” read 0.143 ppm (HBV core protein Cp149 dimer; solution NMR; 4 molar equivalents, pH 7.5, 295 K, average over eight residues; reference: apo Cp149 dimer).
Under “log2 fold change”, `B2 (PP6 regulatory subunit 1)` is recorded as -2.84 (PP6C (human); co-immunoprecipitation, IP-MS; CYB5R4 knockout cells; concentration not given; reference: CYB5R4 knockout over parental).
`GSGAGKETEC` gave a binding intensity of 0.311 (construct, MBP fusion, human SCRIB, PDZ 3-4; automated holdup; peptide, crude extract; concentration not given, uncorrected, unit not given; reference: biotin control resin, higher = stronger binding).
`human histone deacetylase 2` — result for “log2 fold change”: -0.37 (PP6C (human); co-immunoprecipitation, IP-MS; CYB5R4 knockout cells; concentration not given; reference: CYB5R4 knockout over parental).
The p-JNK/JNK ratio of `secretory leukocyte protease inhibitor` is reported as 0.76 ± 0.16 (JNK (mouse); Western blot; RAW264.7; concentration not given, 6 h pretreatment, added: LPS for 30 min).
`VVVGAVGVGK` gave a remaining protein of 0.781 and 0.813 and 0.804 (HLA-A*11:01 peptide-β2M single-chain trimer; western blot, measured: pMHC-I; peptide, 293T cells; 60 h, unit not given, added: 100 µg/mL cycloheximide; reference: time zero).
`PMESGICTIV` — result for “normalised SPR binding response”: 11.7 normalised RU (construct, MBP fusion, human SCRIB, PDZ 3-4; surface plasmon resonance; peptide; concentration not given; higher = stronger binding).
`human epiplakin`: “log2 fold change” 0.45 (PP6C (human); co-immunoprecipitation, IP-MS; CYB5R4 knockout cells; concentration not given; reference: CYB5R4 knockout over parental).
The binding intensity of `GSGAGKESYV` is reported as 0.132 (construct, MBP fusion, human SCRIB, PDZ 3-4; automated holdup; peptide, purified PDZ protein; concentration not given, unit not given; reference: biotin control resin, higher = stronger binding).
Under “log2 fold change”, `B3 (histone H1.3 human)` is recorded as -1.6 (PP6C (human); co-immunoprecipitation, IP-MS; CYB5R4 knockout cells; concentration not given; reference: CYB5R4 knockout over parental).
`CUUUGGUGU (ssRNA)` has a Kd of 8.55 µM (U2AF2; sequencing of bound RNA; RNA; motif only).
`RSRKREIL` has a t1/2 of 1 h (HLA-B8; β2m complex dissociation; peptide; 37 °C).
`B4`: “log2 fold change” -1.65 (PP6C (human); co-immunoprecipitation, IP-MS; CYB5R4 knockout cells; concentration not given; reference: CYB5R4 knockout over parental).
`GSGAGHETIV`: “normalised SPR binding response” 7.4 normalised RU (construct, MBP fusion, human SCRIB, PDZ 3-4; surface plasmon resonance; peptide; concentration not given; higher = stronger binding).
`VVVGAAGVGK` has a remaining protein of 0.632 and 0.656 and 0.638 (HLA-A*11:01 peptide-β2M single-chain trimer; western blot, measured: pMHC-I; peptide, 293T cells; 24 h, unit not given, added: 100 µg/mL cycloheximide; reference: time zero).
Under “KIM127 epitope expression”, `CXCL10` is recorded as 32.6% (human LFA-1 (αLβ2); LFA-1 activation; memory T cells; 80 ng/mL, added: ICAM-1; reference: ICAM-1 untreated).
The bound fraction of `MAPVLYLQDKSSN` is reported as 99.9% (DnaK (Escherichia coli); fluorescence polarization; peptide; 500 µM, 10 °C, added: ATP).
For `GSGAGQITKV`, “normalised SPR binding response” read 0 normalised RU (construct, MBP fusion, human SCRIB, PDZ 3-4; surface plasmon resonance; peptide; concentration not given; higher = stronger binding).

For quick reference, copied from above:
`GSGAGKETEC` gave a binding intensity of 0.311 (construct, MBP fusion, human SCRIB, PDZ 3-4; automated holdup; peptide, crude extract; concentration not given, uncorrected, unit not given; reference: biotin control resin, higher = stronger binding).
`GSGAGHETIV`: “normalised SPR binding response” 7.4 normalised RU (construct, MBP fusion, human SCRIB, PDZ 3-4; surface plasmon resonance; peptide; concentration not given; higher = stronger binding).
`CUUUGGUGU (ssRNA)` has a Kd of 8.55 µM (U2AF2; sequencing of bound RNA; RNA; motif only).
